Assay results gathered from unrelated publications.
A part holds a random share of what one study measured.
UniProt Q13976, sequence (whole entry, looked up): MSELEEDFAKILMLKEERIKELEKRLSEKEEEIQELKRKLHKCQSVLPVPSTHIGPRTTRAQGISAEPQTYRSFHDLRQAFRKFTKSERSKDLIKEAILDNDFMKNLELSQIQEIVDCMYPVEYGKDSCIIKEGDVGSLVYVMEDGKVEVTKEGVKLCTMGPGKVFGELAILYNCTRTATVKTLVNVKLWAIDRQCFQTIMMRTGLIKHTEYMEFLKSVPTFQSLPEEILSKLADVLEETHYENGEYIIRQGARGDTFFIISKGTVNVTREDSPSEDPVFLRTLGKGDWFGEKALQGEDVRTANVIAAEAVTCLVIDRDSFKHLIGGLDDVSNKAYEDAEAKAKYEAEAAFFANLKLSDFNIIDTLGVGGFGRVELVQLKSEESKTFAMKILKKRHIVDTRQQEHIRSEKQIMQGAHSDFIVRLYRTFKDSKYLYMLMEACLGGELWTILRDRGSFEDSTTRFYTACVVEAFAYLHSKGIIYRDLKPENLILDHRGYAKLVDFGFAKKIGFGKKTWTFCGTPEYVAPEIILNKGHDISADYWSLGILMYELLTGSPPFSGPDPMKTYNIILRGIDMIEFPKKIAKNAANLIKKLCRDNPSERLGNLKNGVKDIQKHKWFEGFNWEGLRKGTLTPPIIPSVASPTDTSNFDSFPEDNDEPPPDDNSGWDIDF

Sample 1
Target: TAR DNA-binding protein 43, full length, His tag (TARDBP, Homo sapiens, UniProt Q13148, residues 1-414)
Method: RNA Bind-n-Seq
Molecule type: RNA
Medium: in vitro
Tested at: 20 nM
Setting: 6-mer, flanks averaged, single round
Together with: 150 mM LiCl
Reference: input library
Reading: higher = stronger binding
For `CUGGGU`, “6-mer enrichment (R)” read 1.05.
`UUUGUU` — result for “6-mer enrichment (R)”: 1.51.
For `UGCAAC`, “6-mer enrichment (R)” read 0.87.
Under “6-mer enrichment (R)”, `UCUGGU` is recorded as 0.989.
`CACGUG`: “6-mer enrichment (R)” 0.943.
For `CAGGCC`, “6-mer enrichment (R)” read 0.926.
`CACUUA` — result for “6-mer enrichment (R)”: 0.88.
Under “6-mer enrichment (R)”, `CCCCCA` is recorded as 1.34.

Sample 2
Target: Transcription factor Sp1 (SP1, Homo sapiens, UniProt P08047, residues 1-785, full length assumed)
UniProt P08047, sequence (whole entry, looked up): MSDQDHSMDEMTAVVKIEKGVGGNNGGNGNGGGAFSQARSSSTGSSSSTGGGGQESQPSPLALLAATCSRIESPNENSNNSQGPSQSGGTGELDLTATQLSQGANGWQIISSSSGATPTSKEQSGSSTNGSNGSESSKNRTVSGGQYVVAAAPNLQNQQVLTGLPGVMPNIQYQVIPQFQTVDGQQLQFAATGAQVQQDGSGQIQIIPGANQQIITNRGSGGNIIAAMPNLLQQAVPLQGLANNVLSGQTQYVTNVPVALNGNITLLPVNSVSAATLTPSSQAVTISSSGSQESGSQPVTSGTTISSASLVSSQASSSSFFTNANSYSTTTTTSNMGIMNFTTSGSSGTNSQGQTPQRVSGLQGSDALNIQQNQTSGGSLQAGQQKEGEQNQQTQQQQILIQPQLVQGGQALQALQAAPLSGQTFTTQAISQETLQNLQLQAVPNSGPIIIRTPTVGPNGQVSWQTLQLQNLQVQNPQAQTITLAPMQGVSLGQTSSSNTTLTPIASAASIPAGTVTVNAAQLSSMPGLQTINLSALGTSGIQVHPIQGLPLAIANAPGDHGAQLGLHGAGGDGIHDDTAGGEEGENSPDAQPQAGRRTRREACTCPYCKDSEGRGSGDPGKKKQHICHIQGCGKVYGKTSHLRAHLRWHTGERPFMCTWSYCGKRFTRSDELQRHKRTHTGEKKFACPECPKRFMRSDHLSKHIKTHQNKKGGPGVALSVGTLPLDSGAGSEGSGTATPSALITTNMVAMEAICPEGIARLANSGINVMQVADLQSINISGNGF
Method: protein-binding microarray
Molecule type: double-stranded DNA, one strand shown
Medium: in vitro
Tested at: not given
Setting: k-mer, scored over probes, only values ≥0.25
Reading: higher = stronger binding
`ACTCCCCA` gave an E-score of 0.251.
For `ATGGGGTA`, the E-score was 0.279.
For `ACCCCTTC`, the E-score was 0.369.
The E-score of `GACCGCCC` is reported as 0.348.
The E-score of `GTGGGGTA` is reported as 0.36.
`GCACGCCC` has an E-score of 0.305.
For `ACGCCCCT`, the E-score was 0.479.
`CTCCCCAC` has an E-score of 0.296.

Mixed results
`PhoQ, residues 284 288 289 292 302 303 AANNSF` gave a fold induction of 0.94 (PhoP, residues 12 14 15 18 19 SGWQI (Escherichia coli, UniProt P23836); Sort-seq, refers to: YFP reporter; E. coli; PhoQ-PhoP variant library, together with: 10 µM Mg2+; reference: high Mg2+ state, higher = stronger signaling).
`Cn1cc(/C=C2\C(=O)Nc3ccc(S(N)(=O)=O)cc32)c2ccccc21` has a remaining activity of 81.1% (cGMP-dependent protein kinase 1 (PRKG1, Homo sapiens, UniProt Q13976); enzyme activity, inhibitor; 0.5 µM; reference: control).
